Published values from different studies.
Each numbered part is a random draw from the data of one study; scales do not carry over between parts.
Chain of UniProt Q61527 (whole entry, looked up): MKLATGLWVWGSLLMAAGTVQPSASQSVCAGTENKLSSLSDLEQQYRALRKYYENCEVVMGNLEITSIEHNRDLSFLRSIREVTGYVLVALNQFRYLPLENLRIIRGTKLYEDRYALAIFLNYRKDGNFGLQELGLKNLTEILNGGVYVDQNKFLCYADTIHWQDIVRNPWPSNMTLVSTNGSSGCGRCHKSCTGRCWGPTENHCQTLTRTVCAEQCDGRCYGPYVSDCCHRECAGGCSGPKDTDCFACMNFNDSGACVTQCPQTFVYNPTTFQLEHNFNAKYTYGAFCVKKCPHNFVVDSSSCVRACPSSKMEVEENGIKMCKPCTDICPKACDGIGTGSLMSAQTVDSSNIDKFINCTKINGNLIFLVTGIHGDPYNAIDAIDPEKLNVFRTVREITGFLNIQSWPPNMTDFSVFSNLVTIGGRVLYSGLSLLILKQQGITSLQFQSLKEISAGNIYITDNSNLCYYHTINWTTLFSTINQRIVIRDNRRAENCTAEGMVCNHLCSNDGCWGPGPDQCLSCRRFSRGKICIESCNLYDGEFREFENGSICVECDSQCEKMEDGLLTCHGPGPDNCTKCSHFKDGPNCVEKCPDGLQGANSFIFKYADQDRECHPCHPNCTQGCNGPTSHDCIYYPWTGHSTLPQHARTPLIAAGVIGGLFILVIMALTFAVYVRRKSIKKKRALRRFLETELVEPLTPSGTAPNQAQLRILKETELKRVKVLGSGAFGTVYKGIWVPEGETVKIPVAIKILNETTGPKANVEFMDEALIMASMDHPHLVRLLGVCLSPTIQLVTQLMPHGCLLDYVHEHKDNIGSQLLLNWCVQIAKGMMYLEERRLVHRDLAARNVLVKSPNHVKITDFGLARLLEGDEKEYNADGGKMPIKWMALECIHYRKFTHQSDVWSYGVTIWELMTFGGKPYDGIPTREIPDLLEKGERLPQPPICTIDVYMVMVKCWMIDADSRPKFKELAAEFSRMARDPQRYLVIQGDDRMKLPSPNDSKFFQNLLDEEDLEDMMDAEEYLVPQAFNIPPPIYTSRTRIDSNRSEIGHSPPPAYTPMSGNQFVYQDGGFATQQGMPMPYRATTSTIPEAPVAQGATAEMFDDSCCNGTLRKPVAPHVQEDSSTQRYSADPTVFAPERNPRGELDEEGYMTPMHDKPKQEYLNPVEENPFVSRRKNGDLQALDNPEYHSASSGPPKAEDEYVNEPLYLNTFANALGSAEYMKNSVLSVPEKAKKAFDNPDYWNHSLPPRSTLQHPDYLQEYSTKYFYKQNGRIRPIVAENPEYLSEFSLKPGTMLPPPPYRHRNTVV

Set 1
Structure (SMILES): COc1cc(C(=O)N2CCC(N3CCN(C)CC3)CC2)ccc1Nc1ncc2c(n1)N(C)c1ccccc1C(=O)N2C
target	test	system	conditions	inhibition [%]
NDR2 (mouse)	probe labelling, KiNativ ADP probe	mouse brain lysate	1 µM, LYS1 labelled site	-10.4
mouse IKKε and TBK1	probe labelling, KiNativ ADP probe	mouse brain lysate	0.1 µM, LYS2 site DIkPGNIMR	2.2
CaMK2d (mouse)	probe labelling, KiNativ, measured: Lys1 site peptide	brain tissue lysate (mouse)	0.1 µM, together with: ATP acyl-phosphate probe	-3.8
NEK6 and NEK7 human	KiNativ profiling	human PBMC	concentration not given, LYS2 site, together with: ADP acyl phosphate probe	19.8
CaMK2g (mouse)	probe labelling, KiNativ, measured: Lys1 site peptide	brain tissue lysate (mouse)	1 µM, together with: ADP acyl-phosphate probe	9.6
mouse CaMK2α/β/δ/γ	probe labelling, KiNativ ADP probe	mouse brain lysate	0.1 µM, LYS2 site DLkPENLLLASK	-1
mouse PCTAIRE1/2/3	probe labelling, KiNativ ADP probe	mouse brain lysate	1 µM, LYS2 site DLkPQNLLINER	-5.2
NDR2 (mouse)	probe labelling, KiNativ, measured: DTGHIYAMkILR peptide, LYS1 site	brain tissue lysate (mouse)	0.1 µM, together with: ATP acyl-phosphate probe	-1.2
mouse PFTAIRE1	probe labelling, KiNativ ATP probe	mouse brain lysate	1 µM, LYS1 site LVALkVIR	-4.4
Receptor tyrosine-protein kinase erbB-4 (Erbb4, Mus musculus, UniProt Q61527)	KiNativ profiling	mouse brain lysate	1 µM, LYS1 site, together with: ATP acyl phosphate probe	-9.3

Set 2
Cell line: HaCaT
Tested at: 100 µM
Time: 18 h
SMILES	viability [%]
O=C1c2c(O)ccc(O)c2C(=O)c2c(NCCNCCO)ccc(NCCNCCO)c21	21.7
CC1(C)O[C@@H]2C[C@H]3[C@@H]4C[C@H](F)C5=CC(=O)C=C[C@]5(C)[C@H]4[C@@H](O)C[C@]3(C)[C@]2(C(=O)CO)O1	98.5
CCN(CC)C(=O)Nc1ccc(OCC(O)CNC(C)(C)C)c(C(C)=O)c1 (stereo not drawn)	97.2
CC(=O)O[C@]1(C(C)=O)CC[C@H]2[C@@H]3C=C(C)C4=CC(=O)CC[C@]4(C)[C@H]3CC[C@@]21C	61.9
CCCC1O[C@@H]2C[C@H]3[C@@H]4CCC5=CC(=O)C=C[C@]5(C)[C@H]4[C@@H](O)C[C@]3(C)[C@]2(C(=O)CO)O1 (stereo partly drawn)	60.7
Cc1nc(-c2ccc(OCC(C)C)c(C#N)c2)sc1C(=O)O	97.1
CC(=O)/N=c1/sc(S(N)(=O)=O)nn1C	98.1
Cc1ccc(C)c(OCCCC(C)(C)C(=O)O)c1	99.3
Cc1c(O)c(=O)n(-c2ccccc2)n1C	112
CC#CCn1c(N2CCC[C@@H](N)C2)nc2c1c(=O)n(Cc1nc(C)c3ccccc3n1)c(=O)n2C	58.9

Set 3
Host: mouse
Sample: microsomes or S9
Tested at: 2 µM
Time: 0.5 h
SMILES	remaining compound [%]
Cc1ccc(CN2CCC=C(CCC(=O)O)C2=O)cc1	99.9
Cc1ccc(S(=O)(=O)Nc2c(C)[nH]c(=O)[nH]c2=O)cc1	45.4
Cc1ccc2c(c1)N(C(C)C)N=C(C(=O)N1CCOCC1)S2(=O)=O	72.6
COc1ccc(Cc2nc(-c3ccc(=O)[nH]c3)no2)cc1Cl	18
CCOc1ccc(/N=C2\Nc3cccc4cccc2c34)cc1	0.0721
O=C(NC1CCCCCC1)N1CCOC2(CCOCC2)C1	65.3
Cc1cccc(CN(CCN2CCOCC2)CC(O)COc2ccc(Cl)cc2)c1 (stereo not drawn)	22.5
O=c1cnnc(Nc2ccc(Br)cc2)[nH]1	73.3
CC1(C)CC(=O)c2c(O)cc(OCC(=O)N3CCN(C(=O)C4COc5ccccc5O4)CC3)cc2O1 (stereo not drawn)	2.79
Cc1ccc(N2C(=O)c3n[nH]c(C)c3C2c2ccco2)cc1 (stereo not drawn)	18
COc1cc(=O)n2c(c1C(=O)Nc1ccc(Cl)c(C)c1)CCCC2	3.25
CCc1noc(C2(NC(=O)C3CCCC3)CCCCC2)n1	72.9
Oc1cccc(-c2nc3c(s2)Cc2ccccc2-3)c1	3.69
Cc1cc(C)n(-c2ncnc3sc4c(c23)CC(C)CC4)n1 (stereo not drawn)	0.092
COC(=O)[C@@H]1CCCN1C(=O)c1ccc(OC(c2ccc(Cl)cc2)c2ccc(Cl)cc2Cl)c(F)c1F (stereo partly drawn)	46.1

Set 4
Target: 5-hydroxytryptamine receptor 1D (HTR1D, Homo sapiens, UniProt P28221)
Chain of UniProt P28221 (whole entry, looked up): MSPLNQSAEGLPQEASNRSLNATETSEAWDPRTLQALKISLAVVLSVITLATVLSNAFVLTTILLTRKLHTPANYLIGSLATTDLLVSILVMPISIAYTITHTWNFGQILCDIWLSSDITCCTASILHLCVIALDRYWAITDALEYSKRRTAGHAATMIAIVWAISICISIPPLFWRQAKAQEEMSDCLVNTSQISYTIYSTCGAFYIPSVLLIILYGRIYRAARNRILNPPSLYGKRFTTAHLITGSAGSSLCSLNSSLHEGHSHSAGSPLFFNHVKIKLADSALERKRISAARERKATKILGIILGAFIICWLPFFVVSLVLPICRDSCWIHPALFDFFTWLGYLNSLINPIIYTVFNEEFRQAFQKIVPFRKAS
Observed: ligand displacement
Method: radioligand
Tested at: 10 µM
Compound	inhibition
CCCCN(CCCC)C(=O)CN1C[C@@H](c2cc(OC)c3c(c2)OCO3)[C@H](C(=O)O)[C@H]1CC(C)(C)CCC	-3.72%
O=C(NCc1ncc(C(F)(F)F)cc1Cl)c1ccc2c(c1)C1(CCS(=O)(=O)CC1)[C@@H](C1CC1)N2S(=O)(=O)c1ccc(F)cc1	-16.3%
O=C([C@H]1C[C@H](O)CN1c1ccc(Cl)cc1)N1CC2COCC(C1)N2Cc1ccc(Cl)cc1	-7.5%
CCOCCn1cc(C(=O)Nc2ccc(-n3nc(-c4cccnc4)cc3C(F)(F)F)cn2)ccc1=O	0.593%
CCC(=N\O)/C(C)=C/c1ccc(F)cc1	13.9%
CCOC(=O)c1cc2cc(-c3cc(C(=O)NCc4ccc(C(=O)O)cc4)nn3C)ccc2[nH]1	3.64%
N#Cc1ccc(Nc2ccc3[nH]c(=O)[nH]c3c2)c(Cl)c1	3.68%
CC1=C(C#N)[C@@H](c2ccc3[nH]nc(C)c3c2)C(C#N)=C(c2ccc(Cl)cc2)N1	4.2%
C[C@@H]1CN(c2cc(-c3nn(C)c4ccc(OC5(C)CC5)cc34)ncn2)C[C@H](C)O1	4.11%
CNC(=O)Nc1ccc2c(c1)C1(CC2)OC(=O)N(CC(=O)N(Cc2ccc(F)cc2)[C@@H](C)C(F)(F)F)C1=O (single isomer, unassigned)	2.22%

For quick reference, copied from above (set 3):
SMILES	remaining compound [%]
Cc1cc(C)n(-c2ncnc3sc4c(c23)CC(C)CC4)n1 (stereo not drawn)	0.092
O=C(NC1CCCCCC1)N1CCOC2(CCOCC2)C1	65.3
Cc1ccc(N2C(=O)c3n[nH]c(C)c3C2c2ccco2)cc1 (stereo not drawn)	18
Cc1ccc(S(=O)(=O)Nc2c(C)[nH]c(=O)[nH]c2=O)cc1	45.4
CCc1noc(C2(NC(=O)C3CCCC3)CCCCC2)n1	72.9
COc1cc(=O)n2c(c1C(=O)Nc1ccc(Cl)c(C)c1)CCCC2	3.25
